Assay results gathered from unrelated publications.
Numbered parts are unrelated; each lists some results of a single study.

Set 1
Target: Interferon regulatory factor 5, full length, phosphomimetic (IRF5, Homo sapiens, UniProt Q13568-2, residues 1-514, K96S/S451D/S453D/S456D/S462D)
Technique: protein-binding microarray
Molecule type: double-stranded DNA, one strand shown
Matrix: in vitro
Concentration: 250 nM
Setting: 60-bp whole probe
With: salmon DNA 0.4 mg/ml
Relative to: random background probes
Reading: higher = stronger binding
Measurement: log fluorescence
GCCTAGCACTTCGCTTTCTTTACCACATTGTGCTAGGTCTTGATTCGCTTGACGCTGCTG: 2.25 z-score
GCCTAGCACTCATCTTCCCCTCTCATACTGTGCTAGGTCTTGATTCGCTTGACGCTGCTG: 0.14 z-score
GCCTAGCACTGAGATTTCAGTCTCGATTAGTGCTAGGTCTTGATTCGCTTGACGCTGCTG: 1.94 z-score

Set 2
Target: Max-binding protein MNT, bHLH-zipper, MAX partner unstated (MNT, Homo sapiens, UniProt Q99583, residues 220-300)
Technique: protein-binding microarray
Molecule type: double-stranded DNA, one strand shown
Matrix: in vitro
Concentration: not given
Setting: k-mer, scored over probes, only values ≥0.25
Reading: higher = stronger binding
Measurement: E-score
Construct (chain): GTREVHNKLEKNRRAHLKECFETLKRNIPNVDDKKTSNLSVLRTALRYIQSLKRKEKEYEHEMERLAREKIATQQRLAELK
CACACGTG: 0.495
GCACGCCA: 0.323
AAACACGA: 0.274
ACCAGGCG: 0.279

Set 3
Target: Histone acetyltransferase KAT6A, both winged helices, GST fusion (KAT6A, Homo sapiens, UniProt Q92794, residues 1-181)
Technique: protein binding microarray
Molecule type: double-stranded DNA, one strand shown
Matrix: in vitro
Concentration: not given
Setting: 8-mer, flanks averaged, mean of 2 arrays, mostly near background
Relative to: not given
Reading: higher = stronger binding
Measurement: E-score
Target sequence (chain): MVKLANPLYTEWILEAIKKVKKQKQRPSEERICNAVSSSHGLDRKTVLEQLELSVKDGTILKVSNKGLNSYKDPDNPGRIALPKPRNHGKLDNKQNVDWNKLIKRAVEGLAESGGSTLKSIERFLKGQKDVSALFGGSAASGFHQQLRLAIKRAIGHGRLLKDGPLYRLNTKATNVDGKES
GACGCGTA: 0.295
CAACGACG: 0.0999
GGCGGCGA: 0.322

Mixed results
PhoQ, residues 284 288 289 292 302 303 ALASRC
fold induction (PhoP, residues 12 14 15 18 19 LWHVM (Escherichia coli, UniProt P23836); Sort-seq, item: YFP reporter; E. coli; PhoQ-PhoP variant library, with: 10 µM Mg2+; relative to: high Mg2+ state, higher = stronger signaling): 9.92

Repeated from above (set 1):
GCCTAGCACTCATCTTCCCCTCTCATACTGTGCTAGGTCTTGATTCGCTTGACGCTGCTG: 0.14 z-score
